Results from different studies.
Compare with care: the assays were run in different laboratories. Numbers after ± are the reported error.

Substance | assay | system | conditions | quantity | result
CCN1C(=CC=CC=CC2=[N+](CCCCCC(=O)NCCCC[C@H](NC(=O)CN3CCN(CC(=O)O)CCN(CC(=O)O)CCN(CC(=O)O)CC3)C(=O)NCC(=O)NCC(=O)N[C@@H](Cc3ccc(O)cc3)C(=O)NCC(=O)N[C@H]3CSSC[C@@H]4NC(=O)CNC(=O)[C@H](C)NC(=O)[C@H](CC(C)C)NC(=O)[C@@H]5CSSC[C@@H](C(=O)NCC(N)=O)NC(=O)[C@H](Cc6ccccc6)NC(=O)CNC(=O)[C@H](CC(N)=O)NC(=O)[C@@H]6CCCN6C(=O)CNC(=O)[C@H](CSSC[C@H](NC(=O)[C@H](CO)NC(=O)[C@H]([C@@H](C)O)NC(=O)[C@@H]6CCCN6C(=O)[C@H](C)NC(=O)[C@H](Cc6c[nH]c7ccccc67)NC(=O)[C@H](CC(=O)O)NC(=O)CNC(=O)[C@H](CCCNC(=N)N)NC(=O)CNC(=O)[C@H](CCC(N)=O)NC(=O)[C@@H]6CCCN6C3=O)C(=O)N[C@@H](CO)C(=O)N[C@@H](CCC(N)=O)C(=O)N[C@@H](CC(=O)O)C(=O)N[C@@H](CO)C(=O)N[C@@H](CC(=O)O)C(=O)N5)NC(=O)[C@H](C(C)C)NC4=O)c3ccc4c(S(=O)(=O)[O-])cc(S(=O)(=O)O)cc4c3C2(C)C)C(C)(C)c2c1ccc1c(S(=O)(=O)O)cc(S(=O)(=O)O)cc21 (single isomer, unassigned) [copper-64 labelled] |  | nude mouse, U-87 MG xenograft, tumour | intravenous, 100 µCi, 0.5 nmol, 24 h | tissue uptake | 4.57 ± 0.7 %ID/g
COc1cccc2c1C(=O)c1c(O)c3c(c(O)c1C2=O)C[C@@](O)(C(=O)CO)C[C@@H]3O[C@H]1C[C@H](NC(=O)[C@@H]2CCCN2C(=O)CNC(=O)[C@H](CC(C)C)NC(=O)[C@H](C)NC(=O)CP(=O)(O)O)[C@H](O)[C@H](C)O1 |  | mouse, E0771 tumour-bearing, heart | intravenous, 92 µmol/kg | Cmax | 19 µM
melittin | CD titration | POPC 90% POPG 10% vesicles | pH 7.0, 50 °C | free energy of partitioning | -6.7 kcal/mol
CC(C)C[C@@H]1NC(=O)[C@@H]2CSSC[C@@H](C(=O)NCC(N)=O)NC(=O)[C@H](Cc3ccccc3)NC(=O)CNC(=O)[C@H](CC(N)=O)NC(=O)[C@@H]3CCCN3C(=O)CNC(=O)[C@@H]3CSSC[C@H](NC(=O)[C@H]([C@@H](C)O)NC(=O)[C@H](CC(C)C)NC(=O)[C@@H]4CCCN4C(=O)[C@@H]4CCCN4C(=O)[C@H](CC(N)=O)NC(=O)[C@H](CC(=O)O)NC(=O)CNC(=O)[C@H](CCCNC(=N)N)NC(=O)[C@@H]4CCCN4C(=O)[C@H](CCCNC(=N)N)NC(=O)[C@@H]4CCCN4C(=O)[C@@H](NC(=O)CNC(=O)CN4CCN(CC(=O)O)CCN(CC(=O)O)CCN(CC(=O)O)CC4)CSSC[C@H](NC(=O)CNC(=O)[C@H](C)NC1=O)C(=O)N[C@@H](C(C)C)C(=O)N3)C(=O)N[C@@H](CO)C(=O)N[C@@H](CCC(N)=O)C(=O)N[C@@H](CC(=O)O)C(=O)N[C@@H](CO)C(=O)N[C@@H](CC(=O)O)C(=O)N2 [copper-64 labelled] | PET/CT | CCSP-rtTA TetO-MYC TetO-KrasG12D mouse, healthy lung tissue | 60 min | tissue uptake | 0.3 %ID/g
N=C(N)NCCC[C@@H]1NC(=O)[C@H](CCCCNC(=O)CNC(=O)CNC(=O)CNC(=O)CC[C@H](NC(=O)CCOCCOCCOCCOCCNC(=O)c2ccc(NN)nc2)C(=O)NCC(=O)NCC(=O)NCC(=O)NCCCC[C@@H]2NC(=O)[C@@H](Cc3ccccc3)NC(=O)[C@H](CC(=O)O)NC(=O)CNC(=O)[C@H](CCCNC(=N)N)NC2=O)NC(=O)[C@@H](Cc2ccccc2)NC(=O)[C@H](CC(=O)O)NC(=O)CNC1=O [technetium-99m labelled] | γ-counting | female athymic nude mice, U-87 MG xenograft, liver | intravenous, 0.5 h | tissue uptake | 2.88 ± 0.25 %ID/g
COc1cccc2c1C(=O)c1c(O)c3c(c(O)c1C2=O)C[C@@](O)(C(=O)CO)C[C@@H]3O[C@H]1C[C@H](NC(=O)[C@H](CC(C)C)NC(=O)[C@H](C)NC(=O)[C@H](CC(C)C)NC(=O)CCNC(=O)CCC(=O)O)[C@H](O)[C@H](C)O1 |  | mouse, E0771 tumour-bearing, kidney | intravenous, 92 µmol/kg | terminal half-life | 642 min
N=C(N)NCCC[C@@H]1NC(=O)[C@H](CCCCNC(=O)[C@H](CC(=O)O)NC(=O)[C@H](CC(=O)O)NC(=O)[C@H](CC(=O)O)NC(=O)CC[C@H](NC(=O)CCOCCOCCOCCOCCNC(=O)c2ccc(NN)nc2)C(=O)N[C@@H](CC(=O)O)C(=O)N[C@@H](CC(=O)O)C(=O)N[C@@H](CC(=O)O)C(=O)NCCCC[C@@H]2NC(=O)[C@@H](Cc3ccccc3)NC(=O)[C@H](CC(=O)O)NC(=O)CNC(=O)[C@H](CCCNC(=N)N)NC2=O)NC(=O)[C@@H](Cc2ccccc2)NC(=O)[C@H](CC(=O)O)NC(=O)CNC1=O [technetium-99m labelled] | γ-counting | female athymic nude mice, U-87 MG xenograft, kidneys | intravenous, 2 h | tissue uptake | 15.4 ± 2.3 %ID/g
CSCC[C@H](NC(=O)[C@H](CC(C)C)NC(=O)[C@H](Cc1c[nH]cn1)NC(=O)CNC(=O)[C@@H](NC(=O)[C@H](C)NC(=O)[C@H](Cc1c[nH]c2ccccc12)NC(=O)[C@H](CCC(N)=O)NC(=O)CCC(=O)NCCOCCNC(=O)CN1CCN(CC(=O)O)CCN(CC(=O)O)CCN(CC(=O)O)CC1)C(C)C)C(N)=O |  | CF-1 mouse, urine and bladder | intravenous, 185 kBq, 1 h | excretion | 83.6 ± 2.83%
CC(=O)N(O)CCCCCNC(=O)CCC(=O)N(O)CCCCCNC(=O)CCC(=O)N(O)CCCCCNC(=S)Nc1ccc(NC(=S)NCCOCCOCCOCCOCCC(=O)N[C@@H](CCC(=O)NCCOCCOCCOCCOCCC(=O)NCCCC[C@@H]2NC(=O)[C@@H](Cc3ccccc3)NC(=O)[C@H](CC(=O)O)NC(=O)CNC(=O)[C@H](CCCNC(=N)N)NC2=O)C(=O)NCCOCCOCCOCCOCCC(=O)NCCCC[C@@H]2NC(=O)[C@@H](Cc3ccccc3)NC(=O)[C@H](CC(=O)O)NC(=O)CNC(=O)[C@H](CCCNC(=N)N)NC2=O)cc1 [zirconium-89 labelled] | microPET imaging | female athymic nude mice, tumour-bearing, tumour | 4 h post-injection, together with: unlabelled c(RGDfK) 300 µg per mouse | tumour uptake | 0.39 ± 0.01 %ID/g

Repeated from above:
Substance | assay | system | conditions | quantity | result
COc1cccc2c1C(=O)c1c(O)c3c(c(O)c1C2=O)C[C@@](O)(C(=O)CO)C[C@@H]3O[C@H]1C[C@H](NC(=O)[C@@H]2CCCN2C(=O)CNC(=O)[C@H](CC(C)C)NC(=O)[C@H](C)NC(=O)CP(=O)(O)O)[C@H](O)[C@H](C)O1 |  | mouse, E0771 tumour-bearing, heart | intravenous, 92 µmol/kg | Cmax | 19 µM
